Measured values of several laboratories.
Numbered parts are unrelated; each lists some results of a single study.

Study 1
Target: RNA binding protein fox-1 homolog 2, RRM domain, GST-SBP tag (RBFOX2, Homo sapiens, UniProt O43251-10, residues 100-194)
Technique: RNA Bind-n-Seq
Form: RNA
Sample: in vitro
Concentration: 365 nM
Notes: natural RNA segment, single round, ends assumed
Baseline: no-protein control
Reading: higher = stronger binding
Measurement: RBNS enrichment (R)
Construct (chain): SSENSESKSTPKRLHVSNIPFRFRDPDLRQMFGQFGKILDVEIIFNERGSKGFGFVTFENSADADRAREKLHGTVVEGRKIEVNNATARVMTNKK
Oligonucleotide = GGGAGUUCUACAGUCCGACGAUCCUGCUUUUGUGACAGUCAGAAAACACACCUGGAAUACGAUGCAGCCCACCAUUAACUCAUUCAUGUAGUUUAUUCAAGUGAUUUAUGUAUUUAAACUAAAUAUUGAAAAUUGGAAUUCUCGGGUGCCAA; value = 0.662
Oligonucleotide = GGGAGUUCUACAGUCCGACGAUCCCCCUCCUGGGUGCUCACCGCCUGCUACACAGGCAGGAAUGCGGUUGGGAGGCAGGUCGGGCUGCCAGCCCAGCUGGCCGGAAGGAGACUGUGGUUUUUGUGUGUGUGGAUGGAAUUCUCGGGUGCCAA; value = 0.977
Oligonucleotide = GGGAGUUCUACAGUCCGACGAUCAGGUUAGGAGCUGUUGACUCAGGAUGAGGAAGUAUGGUCUUUAAAAAAAACAAAAUAUAUUUUAGAUUUCUCCCCUAAAGUUAGUUAGAGAAAAAGGUCUAUUCUUCAGCUGGAAUUCUCGGGUGCCAA; value = 0.647
Oligonucleotide = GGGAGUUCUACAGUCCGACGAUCAGAACAGCACAGUGAAGAGUGAAAUGGAGAAAACUCUCACGGUGAAGCAGCUGUUGGAACUCCUGGUAUUAAUGGAGCCAGAGUGACAUGCAUCCUUCGUCUGUCUCAUCUGGAAUUCUCGGGUGCCAA; value = 1.53
Oligonucleotide = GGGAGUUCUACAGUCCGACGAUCGCAUUAGUUUAAAAUGUCGUUUUUGUUACAGCACAAAGGUUUUGUUUACCCGUCAAGUAUUAGCAGCAGUAUUUCUCCCACACGGAGAAGCCUGUGCACAAGUAGCAUGGUGGAAUUCUCGGGUGCCAA; value = 1.97
Oligonucleotide = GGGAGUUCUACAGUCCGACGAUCUCCUGUGUUUGAUGUAUAUUACAUAGAGUCUUAAGUCAGUGUACAGUUCCACUGGAAUUUGACAGUUGUCUCUACAGUCAUGCAACUCGAAGUAGAAAAGAGUGCUGGACUGGAAUUCUCGGGUGCCAA; value = 0.726
Oligonucleotide = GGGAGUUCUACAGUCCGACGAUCGAUUGUGGAGUGUUUACUAGAUACAUAAUGAGGUGCUAAGUUGUGGGGAAGUCUCAUGUAACUCAGAACACUAUCCUGGUCCCAGGCUACACUGUGCACUACGUCUUUAGUGGAAUUCUCGGGUGCCAA; value = 0.561
Oligonucleotide = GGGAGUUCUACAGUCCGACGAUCGAUAGGGCUGGGGUGGGCAGAGUCUGAACACUCCAGCAUUCUACUACCUUGCACUGUGGGGGCAGGGAGAAAGUCACCAUGGCCAGAGAAAGGUAGUGGUCACUGGGUCUUGGAAUUCUCGGGUGCCAA; value = 0.361
Oligonucleotide = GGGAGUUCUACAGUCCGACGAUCACACCUAUUGCGUGAACAGAAUAUGCAUUAUUAAAGCAAAAAUAAAUAAAAAAUAAAAUGCAAGUGAAAACAGGGGGGGAAUUGGAUUAUUUCCUGCACUGGGUUGUGCGUGGAAUUCUCGGGUGCCAA; value = 0.646
Oligonucleotide = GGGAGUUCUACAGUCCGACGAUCGGGGGAGCAGCUGAGGCUUGGGGCCUUGCUCCCUGGGACAUUCUCUCCAUCUUUUGGUGCAUUGGCCAUAUUACUGUGCCAAUAGUGUCUUAACUCAUGUCCCAUCUAUCUGGAAUUCUCGGGUGCCAA; value = 0.695
Oligonucleotide = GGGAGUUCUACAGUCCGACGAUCUUGCUUUGAAGUUUUGCUCAAUGUUCCUCCCUUCCGACCACUUCCACUUAAAUAAAGUCUUUAAGUAGCUGAAGGAUUAACAGUCUGGUGGGAGGCAAGCCAUUGAACUGUGGAAUUCUCGGGUGCCAA; value = 0.311
Oligonucleotide = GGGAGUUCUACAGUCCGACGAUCAUUUGGAGAGAUACUCAAAAGAGCUAAAACUGCAGCAUUUUACCUUUAAAUGCAGUGCCUAGAGAGAGAGUAUUGUCUCUUCCCCAACACUAACCCCACUCCCAUGAAGAUGGAAUUCUCGGGUGCCAA; value = 0.611

Study 2
Target: RING finger protein unkempt homolog, zinc fingers 1-6, SBP tag (UNK, Homo sapiens, UniProt Q9C0B0, residues 30-357)
Sequence of UniProt Q9C0B0 (30-357, looked up): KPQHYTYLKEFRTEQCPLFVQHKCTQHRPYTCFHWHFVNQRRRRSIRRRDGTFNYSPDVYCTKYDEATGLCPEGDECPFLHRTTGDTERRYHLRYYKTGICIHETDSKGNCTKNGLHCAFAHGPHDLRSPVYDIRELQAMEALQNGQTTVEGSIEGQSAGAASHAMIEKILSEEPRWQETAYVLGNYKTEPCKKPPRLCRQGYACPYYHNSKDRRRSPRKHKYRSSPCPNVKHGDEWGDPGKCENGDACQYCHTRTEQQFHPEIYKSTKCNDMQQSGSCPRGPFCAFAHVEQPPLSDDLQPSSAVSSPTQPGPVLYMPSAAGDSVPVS
Technique: RNA Bind-n-Seq
Form: RNA
Sample: in vitro
Concentration: 100 nM
Notes: RNA with constant flanks, vertebrate orthologous sites, ends assumed
Baseline: input RNA pool
Reading: higher = stronger binding
Measurement: bound/input enrichment
Oligonucleotide = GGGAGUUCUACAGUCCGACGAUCCUGUUGUGUGAAACAUGUCUACCCAGAAAAGUAAUAUUCUAUAAAUACUAUUAAAAAACUUAGCUAUAUUAUUUUUAAGCAUUAAAUUAUACGUCAAGGAGUUAAAGUGAAUUUCAGAGUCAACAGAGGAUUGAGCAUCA; value = 0.663 ratio
Oligonucleotide = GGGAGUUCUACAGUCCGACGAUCCUCCCCGUUACCCCUAAGGUAGAACUUUUUAAAAUUGUGUCACCACCACUUCCAAAAAUUUAGCAAUAUUGGAAGAAAAUGCUAAUAAAGUAAAAAAAAAUUUGCUUGCUGUUUUGGAAACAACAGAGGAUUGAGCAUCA; value = 0.274 ratio
Oligonucleotide = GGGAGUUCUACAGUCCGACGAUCAGCAACUCAAGGAUUCAGGACUGGUUUUACAAAUAUCCCAAGUAGAUAUGGAACUAGCACUCGAGGUCAACCCCAUCCAUAAUAAACUCUAAUUUGUAUUAUUUAUUAUACUUAAGGGUACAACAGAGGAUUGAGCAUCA; value = 0.623 ratio
Oligonucleotide = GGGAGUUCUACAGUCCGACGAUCUUGGGACCAGCUCUCCAAGUAGGAAUAGUAGUAAAAAAAAUAAGCAAAAUGAUAUUUGUAUAGAAAAGACAGAAGUUAAAUCAUGUAAAGUAAAUGCUGCCAACAUAGCAAGUCCUAAAGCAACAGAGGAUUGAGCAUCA; value = 1.28 ratio
Oligonucleotide = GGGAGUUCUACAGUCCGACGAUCCAGGGUGGGACCUGGGCCCCACCACUCAGUGGCCCACUGGCCAUCUCAGCCAAGCCACUUUAGGUCCAUUUUUUAUUUUAACAAUGCUCUUCCAACCUGUGCAUAAGCCUGAGAUUUGGACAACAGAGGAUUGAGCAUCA; value = 1.87 ratio
Oligonucleotide = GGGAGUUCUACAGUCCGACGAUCAUUGACAGUGAAAAGAGCCAAGCAGUAGCAUUUUGUUUUUUUUAUAAAUGUAAAAAUUAGAUUCACUUUGUUUCCUAUUCAGUUUUAAAAAUAAAAAUACCUCAGUGCUGUGUUUCCCAGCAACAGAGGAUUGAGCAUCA; value = 0.615 ratio
Oligonucleotide = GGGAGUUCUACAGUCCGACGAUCGAUUAGUGUCAUACCAGCAUAUUAACCUCUCGUCUGUGCACAGCUUCAACCGUUACCGUCUAGUUAGAUUUUUAUUUAAAAUAUGAAAAACCGCUUUUCCCAAGACGUUUUUUAAAAAACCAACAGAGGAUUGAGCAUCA; value = 1.93 ratio
Oligonucleotide = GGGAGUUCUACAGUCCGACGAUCAAGAUGGUGGUUGUACAUUAUUUCAUUUAGAAAAUAUAAAACUUCAUUUUGUUUUGAAGCUAGGUGUUAAACUGGAAUAGCUAUUCUACCCCAGAGAAUGGGGCAGUUGUGCCCUUCCCUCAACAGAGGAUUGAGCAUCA; value = 1.28 ratio
Oligonucleotide = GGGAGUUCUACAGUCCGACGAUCCAGGGUGGGACCCGGGACCCGCGGCUCAGUGGCCCGCUAGCCACGUCAGCCAAGCCACUUUAGGUCCAUUUUUUAUUUUAACAGUGCUCUUCCAUCUUGUGCAUAAGCCUGAGAUUUGGACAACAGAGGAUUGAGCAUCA; value = 0.977 ratio
Oligonucleotide = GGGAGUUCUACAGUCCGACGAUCCUGAAGCUUUGUGUUUGGCUGCACAUGCAUAAGCUGCUACAAAUAGAAUAAAGAAUUUCAUAGCCUGUAUCUAUCAUUUAGAUGCAUGGAAAAAUGGGCUUUGCACUCUGGGUUUGGAGCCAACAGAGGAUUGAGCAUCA; value = 3.37 ratio
Oligonucleotide = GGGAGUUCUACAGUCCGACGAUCAGCAAGUCAAGGCUUCAGGACUGGUUUUACAAAUAUACCAAGUAGAUAUGGAACUAACAAUAGAAUUGGACAACCAAGACCAUGAUGUACUCUAACUUAAUUUAUUAUUUUUUUUCAGGACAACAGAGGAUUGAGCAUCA; value = 1.69 ratio

Study 3
Target: Histone acetyltransferase KAT6A, winged helix 2, GST fusion (KAT6A, Homo sapiens, UniProt Q92794, residues 85-181)
Technique: protein binding microarray
Form: double-stranded DNA, one strand shown
Sample: in vitro
Concentration: not given
Notes: 8-mer, flanks averaged, mean of 2 arrays, mostly near background
Baseline: not given
Reading: higher = stronger binding
Measurement: E-score
Residues (chain): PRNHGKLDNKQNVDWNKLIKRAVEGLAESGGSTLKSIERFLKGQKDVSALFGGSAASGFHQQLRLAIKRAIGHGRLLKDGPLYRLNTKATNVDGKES
Oligonucleotide = TACTGACA; value = 0.107
Oligonucleotide = TCTCCTAA; value = -0.165
Oligonucleotide = TTGCACAA; value = 0.0078
Oligonucleotide = AAGAGCTA; value = 0.136
Oligonucleotide = CCACGACA; value = 0.195
Oligonucleotide = ACTCCCAC; value = 0.0198
Oligonucleotide = GGCCTTAC; value = -0.223
Oligonucleotide = ACCATTAG; value = -0.037
Oligonucleotide = CGTGTTCA; value = 0.0573
Oligonucleotide = ATTACCAG; value = -0.00649
Oligonucleotide = CATCATGC; value = -8e-05
Oligonucleotide = CGGATGGA; value = 0.148
Oligonucleotide = CTAGGTAA; value = -0.253
Oligonucleotide = CAATACAC; value = -0.0231
Oligonucleotide = GGGGTATA; value = -0.212
Oligonucleotide = TCTCGCAA; value = 0.166
Oligonucleotide = AGAAACAG; value = 0.0769
Oligonucleotide = GTACTGAC; value = -0.124
Oligonucleotide = AAAGTACT; value = -0.227
Oligonucleotide = AGTCGCCA; value = -0.0435
Oligonucleotide = ACCGATGC; value = 0.00507
Oligonucleotide = GAGGCATC; value = 0.0728

Study 4
Target: Prothrombin, mature alpha-thrombin (F2, Homo sapiens, UniProt P00734)
Technique: aptamer microarray, sandwich
Form: DNA with 2'F-ANA
Sample: in vitro
Concentration: 200 nM
Notes: whole 15-mer aptamer, many near background
Added: Cy3 exosite-II aptamer, 400 nM
Reading: higher = stronger binding
Measurement: mean fluorescence intensity
Oligonucleotide: GGTTGGTGTGGTTGG
Modification = 2'F-ANA at 5 7 8 10 11 14 15; value = 46.7 a.u.
Modification = 2'F-ANA at 7 8 9 12 15; value = 865 a.u.
Modification = 2'F-ANA at 1 2 3 4 7 10 11 12 13; value = 61.9 a.u.
Modification = 2'F-ANA at 1 2 5 7 8 9 10 11 14 15; value = 48.6 a.u.
Modification = 2'F-ANA at 4 5 6 7 8 11 12 13 15; value = 156 a.u.
Modification = 2'F-ANA at 1 4 6 7 8 10 15; value = 53.9 a.u.
Modification = 2'F-ANA at 1 2 6 7 8 11 12 13 15; value = 236 a.u.
Modification = 2'F-ANA at 1 3 5 6 9 13 15; value = 52.4 a.u.
Modification = 2'F-ANA at 2 3 4 5 8 12 13 14 15; value = 54.5 a.u.
Modification = 2'F-ANA at 3 4 5 7 8 10 11 12 13 14 15; value = 56.7 a.u.
Modification = 2'F-ANA at 5 6 10 13 15; value = 60.4 a.u.
Modification = 2'F-ANA at 1 2 3 8 11 13 14; value = 81.8 a.u.
Modification = 2'F-ANA at 2 5 6 8 9 10 11 12 13; value = 57.3 a.u.
Modification = 2'F-ANA at 1 3 4 5 6 7 9 10 12 13; value = 48.5 a.u.
Modification = 2'F-ANA at 1 2 3 6 9 11 14 15; value = 65 a.u.
Modification = 2'F-ANA at 1 3 6 7 8 10 12; value = 127 a.u.
Modification = 2'F-ANA at 1 3 5 6 9 10 11 12; value = 50.2 a.u.
Modification = 2'F-ANA at 3 4 5 6 7 11 12 15; value = 133 a.u.
Modification = 2'F-ANA at 1 8 10 12 14 15; value = 51.8 a.u.
Modification = 2'F-ANA at 5 7 8 9 10 15; value = 53.1 a.u.
Modification = 2'F-ANA at 3 5 7 8 10 12 15; value = 74.2 a.u.
Modification = 2'F-ANA at 1 2 10 12 15; value = 74.8 a.u.
Modification = 2'F-ANA at 1 5 7 9 11; value = 103 a.u.
Modification = 2'F-ANA at 2 3 4 5 8 9 12 13; value = 111 a.u.
